Experimental data gathered from unrelated publications.
Protocols differ between the studies behind these lines. Values joined by “and” are separate records of one study, mostly repeats; a detail may differ. Numbers after ± are the reported error.
EPHB2: Ephrin type-B receptor 2 (EPHB2, Homo sapiens, UniProt P29323)
Chain of UniProt P29323 (whole entry, looked up): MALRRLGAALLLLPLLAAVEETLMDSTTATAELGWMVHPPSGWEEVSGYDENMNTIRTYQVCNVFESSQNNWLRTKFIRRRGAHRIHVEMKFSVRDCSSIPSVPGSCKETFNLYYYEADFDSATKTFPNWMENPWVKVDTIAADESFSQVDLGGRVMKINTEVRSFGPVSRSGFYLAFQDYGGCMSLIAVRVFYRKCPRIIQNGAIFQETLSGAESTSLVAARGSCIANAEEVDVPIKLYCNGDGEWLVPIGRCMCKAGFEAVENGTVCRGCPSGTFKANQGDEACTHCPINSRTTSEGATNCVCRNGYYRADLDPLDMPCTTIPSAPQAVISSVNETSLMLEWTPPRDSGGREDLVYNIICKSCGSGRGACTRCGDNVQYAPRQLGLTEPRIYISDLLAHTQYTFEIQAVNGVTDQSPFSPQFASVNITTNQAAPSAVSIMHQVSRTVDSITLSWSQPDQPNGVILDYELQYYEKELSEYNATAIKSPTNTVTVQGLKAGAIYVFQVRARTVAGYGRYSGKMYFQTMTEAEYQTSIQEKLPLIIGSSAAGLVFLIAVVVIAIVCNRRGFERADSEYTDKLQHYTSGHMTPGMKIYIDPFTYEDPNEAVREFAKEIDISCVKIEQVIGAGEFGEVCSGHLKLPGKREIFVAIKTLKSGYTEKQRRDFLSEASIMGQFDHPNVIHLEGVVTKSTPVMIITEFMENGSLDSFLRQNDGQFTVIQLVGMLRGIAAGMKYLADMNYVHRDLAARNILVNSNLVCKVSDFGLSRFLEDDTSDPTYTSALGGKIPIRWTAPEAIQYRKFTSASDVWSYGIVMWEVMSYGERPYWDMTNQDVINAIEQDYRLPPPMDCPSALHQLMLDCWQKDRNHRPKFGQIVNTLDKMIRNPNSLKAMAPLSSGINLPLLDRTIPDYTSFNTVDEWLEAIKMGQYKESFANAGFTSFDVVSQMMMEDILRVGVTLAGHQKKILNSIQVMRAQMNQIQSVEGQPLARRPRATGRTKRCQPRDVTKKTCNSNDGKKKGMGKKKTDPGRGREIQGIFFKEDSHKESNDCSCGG
CD38: ADP-ribosyl cyclase/cyclic ADP-ribose hydrolase 1 (CD38, Homo sapiens, UniProt P28907)
Chain of UniProt P28907 (whole entry, looked up): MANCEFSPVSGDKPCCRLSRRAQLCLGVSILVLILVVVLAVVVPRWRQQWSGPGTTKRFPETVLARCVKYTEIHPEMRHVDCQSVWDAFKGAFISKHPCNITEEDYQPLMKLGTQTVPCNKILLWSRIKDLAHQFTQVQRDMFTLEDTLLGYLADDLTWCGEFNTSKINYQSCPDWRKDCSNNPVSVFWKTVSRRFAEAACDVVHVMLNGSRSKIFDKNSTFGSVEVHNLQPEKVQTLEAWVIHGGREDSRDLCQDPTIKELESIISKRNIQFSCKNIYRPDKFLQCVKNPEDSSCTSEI
PSMB7 in 20S proteasome: Proteasome subunit beta type-7, in 20S proteasome (PSMB7, Homo sapiens, UniProt Q99436)
Chain of UniProt Q99436 (whole entry, looked up): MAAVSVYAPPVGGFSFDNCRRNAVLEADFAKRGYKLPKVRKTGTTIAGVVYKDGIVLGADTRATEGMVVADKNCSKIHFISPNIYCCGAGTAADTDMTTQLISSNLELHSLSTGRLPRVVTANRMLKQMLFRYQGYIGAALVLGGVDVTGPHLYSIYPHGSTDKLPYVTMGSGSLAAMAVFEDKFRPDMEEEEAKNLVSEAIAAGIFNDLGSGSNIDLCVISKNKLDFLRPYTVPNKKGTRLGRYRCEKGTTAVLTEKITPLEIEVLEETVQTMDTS
ACVR1 R206H: Activin receptor type-1 (ACVR1, Homo sapiens, UniProt Q04771, R206H)
Chain of UniProt Q04771 (whole entry, unmodified, looked up): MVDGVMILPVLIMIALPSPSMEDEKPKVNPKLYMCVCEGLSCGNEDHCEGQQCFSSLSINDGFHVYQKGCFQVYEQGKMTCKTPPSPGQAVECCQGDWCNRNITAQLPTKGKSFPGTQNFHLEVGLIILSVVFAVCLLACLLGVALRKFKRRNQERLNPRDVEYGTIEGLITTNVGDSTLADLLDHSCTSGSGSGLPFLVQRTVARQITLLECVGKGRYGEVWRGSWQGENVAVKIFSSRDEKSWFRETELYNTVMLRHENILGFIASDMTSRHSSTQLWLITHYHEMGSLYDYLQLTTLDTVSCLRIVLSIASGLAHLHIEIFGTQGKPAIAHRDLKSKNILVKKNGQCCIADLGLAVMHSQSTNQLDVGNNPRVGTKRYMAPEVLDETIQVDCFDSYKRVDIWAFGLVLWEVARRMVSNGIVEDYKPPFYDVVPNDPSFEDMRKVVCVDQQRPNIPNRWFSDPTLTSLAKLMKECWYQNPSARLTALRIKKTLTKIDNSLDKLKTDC
RPS6KA3 C-terminal kinase domain: Ribosomal protein S6 kinase alpha-3, C-terminal kinase domain (RPS6KA3, Homo sapiens, UniProt P51812)
Chain of UniProt P51812 (whole entry, looked up): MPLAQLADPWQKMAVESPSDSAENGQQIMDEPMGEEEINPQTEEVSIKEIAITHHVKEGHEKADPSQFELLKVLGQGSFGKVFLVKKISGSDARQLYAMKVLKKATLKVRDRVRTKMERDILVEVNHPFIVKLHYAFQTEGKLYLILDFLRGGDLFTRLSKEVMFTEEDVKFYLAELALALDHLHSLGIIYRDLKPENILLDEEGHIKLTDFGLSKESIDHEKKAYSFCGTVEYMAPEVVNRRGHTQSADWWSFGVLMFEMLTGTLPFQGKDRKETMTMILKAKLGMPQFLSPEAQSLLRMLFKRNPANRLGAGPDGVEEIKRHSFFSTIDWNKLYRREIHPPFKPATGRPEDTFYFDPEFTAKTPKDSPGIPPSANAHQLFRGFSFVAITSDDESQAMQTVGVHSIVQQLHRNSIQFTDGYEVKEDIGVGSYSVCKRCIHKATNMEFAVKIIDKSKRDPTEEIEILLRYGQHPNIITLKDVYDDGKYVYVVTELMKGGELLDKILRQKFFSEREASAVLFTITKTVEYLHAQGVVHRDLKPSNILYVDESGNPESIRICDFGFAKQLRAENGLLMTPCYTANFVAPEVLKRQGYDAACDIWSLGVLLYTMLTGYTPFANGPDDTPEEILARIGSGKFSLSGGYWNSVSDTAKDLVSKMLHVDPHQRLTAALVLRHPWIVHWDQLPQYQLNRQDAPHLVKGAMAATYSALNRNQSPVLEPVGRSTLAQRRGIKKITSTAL
Seed linoleate 13S-lipoxygenase-1: Seed linoleate 13S-lipoxygenase-1 (Glycine max, UniProt P08170)
Chain of UniProt P08170 (whole entry, looked up): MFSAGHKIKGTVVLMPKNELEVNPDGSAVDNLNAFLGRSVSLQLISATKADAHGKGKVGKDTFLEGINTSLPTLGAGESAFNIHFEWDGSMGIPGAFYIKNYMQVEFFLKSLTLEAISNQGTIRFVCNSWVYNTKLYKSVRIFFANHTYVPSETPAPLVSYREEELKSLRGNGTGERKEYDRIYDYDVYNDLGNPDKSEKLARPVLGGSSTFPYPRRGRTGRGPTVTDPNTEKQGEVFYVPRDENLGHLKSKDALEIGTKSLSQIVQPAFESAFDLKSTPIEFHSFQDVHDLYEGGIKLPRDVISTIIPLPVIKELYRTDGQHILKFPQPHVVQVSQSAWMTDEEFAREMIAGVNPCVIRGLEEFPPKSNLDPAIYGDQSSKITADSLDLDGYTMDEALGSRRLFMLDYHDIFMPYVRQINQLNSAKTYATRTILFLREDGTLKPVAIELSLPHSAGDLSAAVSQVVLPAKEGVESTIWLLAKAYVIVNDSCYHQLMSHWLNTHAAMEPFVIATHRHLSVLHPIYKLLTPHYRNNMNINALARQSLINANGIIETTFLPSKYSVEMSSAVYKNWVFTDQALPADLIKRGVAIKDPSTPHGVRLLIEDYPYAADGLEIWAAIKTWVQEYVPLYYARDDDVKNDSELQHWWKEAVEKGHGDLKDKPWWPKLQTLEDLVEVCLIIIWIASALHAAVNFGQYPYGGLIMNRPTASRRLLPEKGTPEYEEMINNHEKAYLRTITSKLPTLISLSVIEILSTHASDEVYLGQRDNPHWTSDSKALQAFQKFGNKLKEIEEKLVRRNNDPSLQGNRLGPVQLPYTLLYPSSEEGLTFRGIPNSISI
Chain of UniProt Q96KS0 (whole entry, looked up): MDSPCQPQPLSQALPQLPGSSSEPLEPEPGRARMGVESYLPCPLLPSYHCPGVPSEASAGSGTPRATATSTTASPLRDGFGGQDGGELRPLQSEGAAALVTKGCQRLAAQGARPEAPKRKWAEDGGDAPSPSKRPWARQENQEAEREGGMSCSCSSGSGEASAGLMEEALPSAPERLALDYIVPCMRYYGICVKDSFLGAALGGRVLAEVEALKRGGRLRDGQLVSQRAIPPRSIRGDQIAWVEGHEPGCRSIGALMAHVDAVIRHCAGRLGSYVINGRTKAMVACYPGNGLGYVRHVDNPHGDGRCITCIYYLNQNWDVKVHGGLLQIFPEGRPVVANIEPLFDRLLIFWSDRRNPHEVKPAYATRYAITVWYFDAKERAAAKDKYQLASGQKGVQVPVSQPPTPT
Chain of UniProt P22411 (whole entry, looked up): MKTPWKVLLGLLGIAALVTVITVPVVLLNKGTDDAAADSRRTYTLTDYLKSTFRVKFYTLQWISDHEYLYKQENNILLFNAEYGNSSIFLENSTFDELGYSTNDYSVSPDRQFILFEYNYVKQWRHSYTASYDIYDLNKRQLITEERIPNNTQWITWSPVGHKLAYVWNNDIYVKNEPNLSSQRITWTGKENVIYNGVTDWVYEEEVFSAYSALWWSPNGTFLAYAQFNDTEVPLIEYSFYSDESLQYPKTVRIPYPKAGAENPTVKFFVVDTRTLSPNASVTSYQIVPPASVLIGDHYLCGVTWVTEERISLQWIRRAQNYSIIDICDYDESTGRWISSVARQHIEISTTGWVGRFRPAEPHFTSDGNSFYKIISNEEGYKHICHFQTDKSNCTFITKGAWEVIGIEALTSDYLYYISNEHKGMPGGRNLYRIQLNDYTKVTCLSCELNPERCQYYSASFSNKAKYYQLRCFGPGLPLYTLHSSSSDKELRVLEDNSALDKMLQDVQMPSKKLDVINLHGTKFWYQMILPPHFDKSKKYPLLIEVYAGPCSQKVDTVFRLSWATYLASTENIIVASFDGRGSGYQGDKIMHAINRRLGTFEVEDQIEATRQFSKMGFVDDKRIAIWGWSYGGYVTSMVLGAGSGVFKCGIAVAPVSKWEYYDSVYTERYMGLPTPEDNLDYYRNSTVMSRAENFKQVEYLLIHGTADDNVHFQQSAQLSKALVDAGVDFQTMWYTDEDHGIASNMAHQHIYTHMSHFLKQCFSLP

| Compound | target | test | test system | conditions | IC50 |
| --- | --- | --- | --- | --- | --- |
| CC(=O)NCCN(CC(=O)NCCN(CC(=O)NCCN(CC(=O)NCCC(N)=O)C(=O)[C@@H](N)CCCCN)C(=O)[C@@H](N)Cc1ccccc1)C(=O)[C@@H](N)Cc1ccccc1 | HIV-1 TAR RNA | Tat/TAR complex displacement, FRET | – | room temperature, added: 10 nM Tat/TAR complex | 340.5 ± 0.4 µM |
| CNC(=O)C1CCN(c2ccccc2NC(=O)c2ccc(-c3cc(O)ccc3C)c(C)c2)CC1 | EPHB2 | target engagement in cells, BRET | – | – | 0.0154 µM |
| c1ccc(CCNc2ncnc3[nH]cnc23)cc1 | Sensor histidine protein kinase/phosphatase WalK (walK, Streptococcus pneumoniae, UniProt Q8DPL8) | enzyme activity, ATP-competitive inhibitor | – | – | 1310 µM |
| O=S(=O)(Nc1ccc(O)c2ccccc12)c1ccc(Cl)cc1 | CD38 | enzyme activity, inhibitor, fluorescence | – | – | 37.5 µM |
| C=C(C)C(=O)Nc1ccc(-c2c(-c3ccc(Oc4cccc(C)n4)cc3)c3c(N)ncnc3n2C)cc1 | FGFR2 (Homo sapiens, UniProt P21802) | Caliper mobility shift | – | 30 min preincubation, added: 100 µM ATP | 0.004 µM |
| O=C1NC(=O)/C(=C\c2ccc(-c3ccc(C(F)(F)F)cc3)cc2)S1 | CD38 | enzyme activity, inhibitor, fluorescence | – | – | 42.7 µM |
| CNC(=O)C1CCN(c2ccccc2NC(=O)c2ccc(-c3cc(O)ccc3C)c(OC)c2)CC1 | EPHB2 | target engagement in cells, BRET | – | – | 0.276 µM |
| O=[N+]([O-])c1ccc(Cn2cc(Cn3cc(CO)nn3)nn2)cc1 | Cytohesin-3, PH domain (Cyth3, Mus musculus, UniProt O08967) | PI(3,4,5)P3 binding, competitive SPR | – | PH domain 500 nM | 0.789 ± 0.035 µM |
| C=C(NC(=O)C(=C)NC(=O)c1csc(C2=NC3c4csc(n4)C4NC(=O)c5csc(n5)C(C(C)(O)C(C)O)NC(=O)C5CSC(=N5)C(=CC)NC(=O)C(C(C)O)NC(=O)c5csc(n5)C3(CC2)NC(=O)C(=C)NC(=O)C(=C)NC(=O)C(C)NC(=O)C(C(C)CC)NC2C=Cc3c(C(C)O)cc(nc3C2O)C(=O)OC4C)n1)C(N)=O (centres unmarked) | PSMB7 in 20S proteasome | trypsin-like activity, inhibitor | purified 20S proteasome | 15 min preincubation, 37 °C, added: Boc-Leu-Arg-Arg-AMC substrate | 2.46 ± 0.43 µM |
| COc1ccc(S(=O)(=O)n2nc(OC(=O)c3ccccc3)cc2N)cc1 | Genome polyprotein, protease (West Nile virus, UniProt P06935) | enzyme activity, inhibitor, fluorescence | – | with preincubation | 0.16 µM |
| COc1cc(-c2nc3ccc(C(=O)NCCCN4CCN(C5CCCCC5)CC4)cc3n2C2CCC2)cc(OC)c1OC | ACVR1 R206H | binding, NanoBRET | HEK293 | – | 0.85 µM |
| O=c1c2ncn3c2ncn1[C@@H]1O[C@H](COCc2cn(nn2)C[C@H]2O[C@@H]3[C@H](O)[C@@H]2O)[C@@H](O)[C@H]1O | CD38 | enzyme activity, inhibitor | – | – | 396 µM |
| CCn1cc(-c2ccnc(Nc3ccc(OC)cc3)n2)c(-c2cccnc2)n1 | ACVR1 R206H | enzyme activity, inhibitor, radiometric | – | – | 0.0943 µM |
| CC(C)(C)NCCCNC(=O)c1ccnc(C(F)(F)F)c1 | PHF23 (Homo sapiens, UniProt Q9BUL5) | methyl-lysine reader binding, inhibitor, AlphaScreen | – | – | > 100 µM |
| CN(C)c1ccc2c3c(cccc13)C(=O)N(C(CS)C(=O)O)C2=O (centres unmarked) | Metallo-beta-lactamase type 2 (Serratia marcescens, UniProt P52699) | enzyme activity, inhibitor | – | pH 7.0, added: chromacef 25 µM | 1.02 ± 0.05 µM |
| Fc1ccc(NCc2cn(-c3ccccc3)nc2-c2ccc(OCc3ccccc3)cc2)cc1 | PTGS1 (Homo sapiens, UniProt P23219) | enzyme activity, inhibitor, absorbance | – | – | 139 µM |
| CC(=O)NCCN(CC(=O)NCCN(CC(=O)NCCN(CC(=O)NCCC(N)=O)C(=O)[C@@H](N)Cc1ccccc1)C(=O)[C@@H](N)CCCNC(=N)N)C(=O)[C@@H](N)CCCNC(=N)N | HIV-1 TAR RNA | Tat/TAR complex displacement, FRET | – | room temperature, added: 10 nM Tat/TAR complex | 7.6 ± 0.7 µM |
| N#C/C(=C\c1cccc(C(N)=O)c1)C(N)=O | RPS6KA3 C-terminal kinase domain | enzyme activity, inhibitor | – | 10 mM reduced glutathione, added: 0.1 mM ATP, peptide substrate | 3.3 µM |
| O=c1c2ccccc2ncn1-c1ccccc1F | MAPK14 (Homo sapiens, UniProt Q16539) | enzyme activity, inhibitor, fluorescence | – | – | 520 µM |
| Cc1cc(O)cc(C)c1C[C@H](NC(=O)[C@@H]1CCCN1C(=O)[C@H](CCCNC(=N)N)NC(=O)[C@H](CCCNC(=N)N)N(C)C(=O)[C@@H]1CCCN1C(=O)[C@@H](CC(C)C)NC(=O)[C@@H](CC(C)C)NC(=O)[C@H](CCCCN)NC(=O)[C@@H](CC(C)C)NC(=O)[C@@H](CC(C)C)NC(=O)CN1CCN(CC(=O)O)CCN(CC(=O)O)CCN(CC(=O)O)CC1)C(=O)N[C@H](C(=O)N[C@@H](CC(C)C)C(=O)O)C(C)(C)C | NTSR1 (Homo sapiens, UniProt P30989) | ligand displacement, radioligand | – | pH 7.4 | 0.031 µM |
| C[C@@H](c1ccn(Cc2ccc(Cl)cc2Cl)n1)[C@](O)(Cn1cnnn1)c1ccc(F)cc1F | Cytochrome P450 2C9 (CYP2C9, Homo sapiens, UniProt P11712) | enzyme activity, inhibitor | human, liver microsomes | – | 3.07 µM |
| C=C(NC(=O)C(=C)NC(=O)c1csc(C2=NC3c4csc(n4)C4NC(=O)c5csc(n5)C(C(C)(O)C(C)O)NC(=O)C5CSC(=N5)C(=CC)NC(=O)C(C(C)C)NC(=O)c5csc(n5)C3(CC2)NC(=O)C(C)NC(=O)C(=C)NC(=O)C(C)NC(=O)C(C(C)CC)NC2C=Cc3c(C(C)O)cc(nc3C2O)C(=O)OC4C)n1)C(N)=O (centres unmarked) | PSMB7 in 20S proteasome | trypsin-like activity, inhibitor | purified 20S proteasome | 15 min preincubation, 37 °C, added: Boc-Leu-Arg-Arg-AMC substrate | 1.33 ± 0.27 µM |

| Compound | target | test | test system | conditions | IC50 |
| --- | --- | --- | --- | --- | --- |
| COc1cc(C(=O)NC2CCC(N3CCN(CC4CCC(C)C4)CC3)CC2)c(F)cc1Nc1ncc2c(n1)N(C1CCCC1(F)F)CC(F)(F)C(=O)N2C (centres unmarked) | PLK1 (Homo sapiens, UniProt P53350) | enzyme activity, inhibitor, ADP detection | – | – | 4.73e-05 µM |
| COc1cccc(-c2cc(C(=O)NCCN(C)C)c3cc(Br)ccc3n2)c1 | TPR (Trypanosoma brucei brucei, UniProt P39051) | inhibitor, DTNB-coupled colourimetric | – | added: substrate at Km | > 100 µM |
| COc1cc(OC)c(C(=O)/C=C/c2ccc(N(C)CCO)cc2)c(OC)c1 | Seed linoleate 13S-lipoxygenase-1 | enzyme activity, inhibitor, absorbance | – | – | 52.5 µM |
| N=C(CF)NCCC[C@H](NC(=O)c1ccc(/N=N\c2ccccc2)cc1)c1nc2ccccc2[nH]1 | PADI2 (Homo sapiens, UniProt Q9Y2J8) | inhibitor, competitive ABPP | – | 2 h, 37 °C, 30 min preincubation, added: RFA probe 2 µM | 23.8 µM |
| O=C([O][Ti+2][O]C(=O)c1ccc([P+]([Au-][Cl])(c2ccccc2)c2ccccc2)cc1)c1ccc([P+]([Au-][Cl])(c2ccccc2)c2ccccc2)cc1.c1cc[cH-]c1.c1cc[cH-]c1 | AKT3 (Homo sapiens, UniProt Q9Y243) | enzyme activity, inhibitor, radiometric | – | – | 0.355 µM |
| Cc1cc(O)c2c(c1)C(=O)c1cc3oc(=O)cc(-c4ccc(Cl)cc4)c3c(O)c1C2=O | mushroom tyrosinase | enzyme activity | – | added: L-DOPA | > 100 µg/mL |
| N=C(N)NCCC[C@@H](NC(=O)[C@H](Cc1c[nH]cn1)NC(=O)[C@H](CO)NC(=O)[C@H](Cc1c[nH]c2ccccc12)NC(=O)[C@H](Cc1c[nH]cn1)NC(=O)[C@@H]1CCC(=O)N1)C(=O)N[C@@H](Cc1c[nH]c2ccccc12)C(=O)N[C@@H](Cc1ccc(O)cc1)C(=O)N1CCC[C@H]1C(=O)NCC(N)=O | Gonadotropin-releasing hormone receptor (Rattus norvegicus, UniProt P30969) | ligand displacement in cells, radioligand | – | – | 0.0005 µM |
| CCn1c(SC(C)C(=O)Nc2ccc(C)c(C)c2)nnc1C1CCN(C(=O)Nc2ccccc2)CC1 (centres unmarked) | Seed linoleate 13S-lipoxygenase-1 | enzyme activity, inhibitor | – | – | < 16 µM and 12.1 µM |
| COc1ccc(N2CCN(C(=O)c3ccc(Cl)c([N+](=O)[O-])c3)CC2)cc1 | SEC14 (Saccharomyces cerevisiae, UniProt P24280) | enzyme activity, inhibitor, radiometric | – | – | 0.175 µM |
| O=C1C[C@@H](c2ccc(O)c(O)c2)c2c(cc(O)c3c2O[C@H](c2ccc(O)c(O)c2)[C@H](O)C3)O1 | DPP4 (Sus scrofa, UniProt P22411) | enzyme activity, inhibitor, absorbance | – | – | > 111 µM |
| C=C(NC(=O)C(=C)NC(=O)c1csc(C2=NC3c4csc(n4)C4NC(=O)c5csc(n5)C(C(C)(O)C(C)O)NC(=O)C5CSC(=N5)C(=CC)NC(=O)C(C(C)O)NC(=O)c5csc(n5)C3(CC2)NC(=O)C(C)NC(=O)C(=C)NC(=O)C(CCSC)NC(=O)C(C(C)CC)NC2C=Cc3c(C(C)O)cc(nc3C2O)C(=O)OC4C)n1)C(N)=O (centres unmarked) | PSMB7 in 20S proteasome | trypsin-like activity, inhibitor | purified human 20S proteasome | 37 °C, 15 min preincubation, added: Boc-Leu-Arg-Arg-AMC | 0.09 ± 0.01 µM |
| CCc1nc2cc(C)c(Oc3ccc(OC(F)(F)F)cc3)cc2c(O)c1C | cytochrome b (Musca domestica, UniProt A0A0P0LY28) | succinate-cytochrome c oxidoreductase activity, inhibitor | Musca domestica, mitochondria | 4 min preincubation, 30 °C | 0.005 µM |
| N#C/C(=C\c1cccc(-c2ccncc2)c1)C(N)=O | RPS6KA3 C-terminal kinase domain | enzyme activity, inhibitor | – | 10 mM reduced glutathione, added: 0.1 mM ATP, peptide substrate | 1.1 µM |
| CC(C)n1cnc(C[C@H](NC(=O)c2cnccn2)C(=O)N2CCC[C@H]2C(N)=O)c1 | Thyrotropin-releasing hormone receptor (Mus musculus, UniProt P21761) | ligand displacement, radioligand | – | – | > 50 µM |
| O=S1(=O)O[C@@H]2[C@H](CO)[C@@H](O)[C@H](O)[C@@H](O)[C@@H]2O1 | Beta-glucosidase (GBA2, Homo sapiens, UniProt Q9HCG7) | enzyme activity, inhibitor | – | pH 5.8, with preincubation | 58 µM |
| COc1ccc(C)cc1S(=O)(=O)Nc1ccc(Cl)c(N2CCCS2(=O)=O)c1 | Urea transporter 2, UT-A2 isoform (SLC14A2, Homo sapiens, UniProt Q15849) | urea transport, inhibitor | HEK293 transfected with wild-type SLC14A2 | – | 2.78 ± 0.32 µM |
| Nc1ncc(-c2cnn(C3CCNCC3)c2)cc1-c1nc2ccc(O)cc2o1 | JAK2 (Homo sapiens, UniProt O60674) | enzyme activity, inhibitor, TR-FRET | – | – | 0.123 µM |
| Cn1sc(Nc2c(Cl)ccc3ncccc23)c(C#N)c1=O | SARM1 (Homo sapiens, UniProt Q6SZW1, C649A) | enzyme activity, inhibitor | – | – | 0.46 µM |
| O=C(/C=C(\O)C(F)(F)C(F)(F)F)c1cccnc1 | formate-nitrite transporter (Plasmodium berghei, UniProt A0A509AFP9) | L-lactate transport, inhibitor | yeast | pH 6.8, added: 14C-L-lactate 1 mM | 0.75 ± 0.03 µM |
| CN1CCN(C)[C@H](CCN2CC[C@H](c3ccc(F)cc3)C2)C1 | IDH1 (Homo sapiens, UniProt O75874) | enzyme activity, inhibitor, absorbance | – | – | 95 µM |
| CNC(=O)C1CCN(c2cc(C)ccc2NC(=O)c2ccc(-c3cc(O)ccc3C)c(C)c2)CC1 | EPHA4 (Homo sapiens, UniProt P54764) | target engagement in cells, BRET | – | – | 0.01 µM |
| O=c1c(-c2cccnc2)c[nH]n1-c1cc(N2CCCC2)ncn1 | EGLN2 (Homo sapiens, UniProt Q96KS0) | enzyme activity, inhibitor, europium VBC binding | – | 10 µM FeSO4, 2 mM ascorbate, added: 20 µM 2-oxoglutarate | 0.92 µM |
